{"data": "Measured values collected from several papers", "note": "Parts stem from different laboratories: compare values within a part only.", "chain of UniProt P25021 (whole entry, looked up)": "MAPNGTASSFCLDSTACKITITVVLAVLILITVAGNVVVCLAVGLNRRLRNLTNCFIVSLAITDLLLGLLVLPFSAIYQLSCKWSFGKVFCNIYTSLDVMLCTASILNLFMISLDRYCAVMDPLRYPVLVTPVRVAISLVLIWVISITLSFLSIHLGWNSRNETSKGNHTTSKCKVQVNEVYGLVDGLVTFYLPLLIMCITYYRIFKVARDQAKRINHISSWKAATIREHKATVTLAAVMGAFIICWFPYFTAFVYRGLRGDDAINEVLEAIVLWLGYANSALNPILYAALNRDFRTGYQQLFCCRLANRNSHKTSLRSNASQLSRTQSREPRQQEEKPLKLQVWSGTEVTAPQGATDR"}
{"data": "Sample 1", "target": "RING finger protein unkempt homolog, zinc fingers 1-6, SBP tag (UNK, Homo sapiens, UniProt Q9C0B0, residues 30-357)", "technique": "RNA Bind-n-Seq", "molecule type": "RNA", "medium": "in vitro", "tested at": "100 nM", "setting": "RNA with constant flanks, vertebrate orthologous sites, ends assumed", "baseline": "input RNA pool", "direction": "higher = stronger binding", "shared flanks, not repeated": "GGGAGUUCUACAGUCCGACGAUC … CAACAGAGGAUUGAGCAUCA", "chain of UniProt Q9C0B0 (30-357, looked up)": "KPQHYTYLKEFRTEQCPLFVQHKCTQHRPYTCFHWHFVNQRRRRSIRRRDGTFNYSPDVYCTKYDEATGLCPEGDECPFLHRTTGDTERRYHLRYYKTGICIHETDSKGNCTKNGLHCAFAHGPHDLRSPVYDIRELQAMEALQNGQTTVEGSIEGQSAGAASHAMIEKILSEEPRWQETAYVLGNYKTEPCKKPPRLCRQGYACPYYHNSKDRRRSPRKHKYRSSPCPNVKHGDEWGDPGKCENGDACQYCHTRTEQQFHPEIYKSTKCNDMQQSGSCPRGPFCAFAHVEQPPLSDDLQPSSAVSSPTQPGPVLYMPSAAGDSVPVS"}
{"Oligonucleotide": "AAAUUCCCCCAUUGUCACUGAGAACCACCAAAUCUGACUUUUACAUUUGGUCUCAGAAUUUAGGUUCCUGCCCUGUUUUGUUUUUUUUGUUUUUUUGUUUUUUGUUUUUUUUUUUAAACA", "bound/input enrichment": "1.81 ratio"}
{"Oligonucleotide": "CAGUGCCAUGGUUGAUGGGUCUGAGCUCAAAAAAGUGCGAUCCAAUUCGCGCAUUUACCAUCGCUACUUUCUCCUUGACGCCGACAUGCAGUCUUUGAGAUGGGAACCUUCAAAGAAGGA", "bound/input enrichment": "0.156 ratio"}
{"Oligonucleotide": "UACCUGUGUACAUUUCAUUCACAACACUGAAUGCAAAGUAGCGAUUUCCAUAGUCACAAAAUAAUGUAGCUUUAGGGCGAUAUCACCAUGGGUUUUACUCAUGUGCAGGUCUCGAAAAUG", "bound/input enrichment": "0.603 ratio"}
{"Oligonucleotide": "CUUAAAGUCAUUUUUCCACAUUUCCUGUAAAUAAUGGAUAAUCAUUUUUAUUUUAUUUUUAAGUACUGUUUUAACAAUGUGGAUAGACCAUAAAUGUACUUGCUGAAUUCAUUCAUGUUU", "bound/input enrichment": "0.166 ratio"}
{"Oligonucleotide": "CUCUAUGUAGAAAACAAUUUUCACUGAAGCCAUUGUCAAGUUUUUCCCCCUAGAUUUUCAUUUGGAGCUCUUUAAUUUUAUACAAGCUUGCUGUGUUGGUCAUCAUUAGCCCAGAGGUAA", "bound/input enrichment": "0.964 ratio"}
{"Oligonucleotide": "GUCCUUUCACACUGUCCCUGGCCAGGUUCGAGGACUGGAGACUUCACUGAGGACCCACAUUUCAGUUUUCUACAUCGUUGUCCAGAAAGAGAUGUGACUGAAAUGGUCGAGUGUCUCUUU", "bound/input enrichment": "0.294 ratio"}
{"Oligonucleotide": "UAAUGUGUUUUUAUUUACUGAAGAUCGUUUUGUGCUAAGAAUUGUGUUAGAUUUAAAAAUAAGAGGAUUAGUUCCUCUUUGUUGUGUUGAUUUCAUUGUUGAAAAUAAAUAGAACUUUGU", "bound/input enrichment": "0.667 ratio"}
{"Oligonucleotide": "CGUCCUUACCUACUGCCCCCGGCCAGGGCCAAGGGCCAGAUGUCUCACUGAGGACCUGCUUUUAAAACAUUUUUUAAGUCGUUGUACAGGAAGAGGUGUGUCUAAAGAGCAUCUCAAGGU", "bound/input enrichment": "0.506 ratio"}
{"data": "Sample 2", "target": "Histone acetyltransferase KAT6A, winged helix 1, GST fusion (KAT6A, Homo sapiens, UniProt Q92794, residues 1-85)", "technique": "protein binding microarray", "molecule type": "double-stranded DNA, one strand shown", "medium": "in vitro", "tested at": "not given", "setting": "8-mer, flanks averaged, mean of 2 arrays, mostly near background", "baseline": "not given", "direction": "higher = stronger binding", "Residues (chain)": "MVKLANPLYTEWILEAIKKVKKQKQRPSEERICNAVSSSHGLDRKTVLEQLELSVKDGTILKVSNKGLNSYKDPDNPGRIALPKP"}
{"Oligonucleotide": "ATAAAACG", "E-score": 0.121}
{"Oligonucleotide": "AGAACCAC", "E-score": -0.187}
{"Oligonucleotide": "CCAGCGTA", "E-score": 0.0948}
{"Oligonucleotide": "AGCGTCAA", "E-score": 0.0947}
{"Oligonucleotide": "TAAGTGAA", "E-score": -0.219}
{"Oligonucleotide": "AGAAGTTA", "E-score": -0.24}
{"Oligonucleotide": "CGTCCTAC", "E-score": 0.0984}
{"Oligonucleotide": "CCACTCTA", "E-score": -0.164}
{"data": "Single results of other studies"}
{"SMILES": "O=c1c(O)c(-c2ccccc2)oc2cc(O)ccc12", "test system": "mouse, microsomes or S9", "conditions": "2 µM, 0.5 h", "endpoint": "remaining compound", "value": "1.08%"}
{"SMILES": "C[C@H](NC(=O)Nc1cc2[nH]ncc2c(CO)n1)c1ccccn1", "tested on": "HRH2 (Homo sapiens, UniProt P25021)", "test": "cell-free assay", "conditions": "10 µM", "endpoint": "inhibition", "value": "3.05%"}
{"note": "A few entries again (single results of other studies):"}
{"SMILES": "O=c1c(O)c(-c2ccccc2)oc2cc(O)ccc12", "test system": "mouse, microsomes or S9", "conditions": "2 µM, 0.5 h", "endpoint": "remaining compound", "value": "1.08%"}
{"SMILES": "C[C@H](NC(=O)Nc1cc2[nH]ncc2c(CO)n1)c1ccccn1", "tested on": "HRH2 (Homo sapiens, UniProt P25021)", "test": "cell-free assay", "conditions": "10 µM", "endpoint": "inhibition", "value": "3.05%"}
